Results collected from several papers.
Each numbered part is a random draw from the data of one study; scales do not carry over between parts. Substitutions count along the parent as printed.

Series 1 — target: CCND3, cyclin fold, Cln2 fusion (human); technique: yeast growth competition, sequencing; matrix: yeast; setting: weak parent motif; relative to: not given; reading: higher = stronger binding; measurement: normalised enrichment score
Starting sequence: RRM2 docking peptide (human); SKTARRIFQEPTE
T3A: -0.163
P11A: 0.287
S1A: 0.305
E13A: 0.389
F8A: 0.459
Q9A: 0.446

Series 2 — target: DDIT3, bZIP domain (human); technique: DHFR protein complementation; matrix: yeast; relative to: wild-type JUN-FOS pair; reading: higher = stronger binding; measurement: binding fitness
Setting: single substitutions, most at no-binding floor
Starting sequence: JUN, bZIP domain (human); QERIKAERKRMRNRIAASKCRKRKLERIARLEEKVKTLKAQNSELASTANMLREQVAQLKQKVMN; partner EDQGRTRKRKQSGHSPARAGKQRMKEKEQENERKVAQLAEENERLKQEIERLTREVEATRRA
S43Q: 0.162 natural log
S47I: 0.0575 natural log
R30P: -0.49 natural log
V56A: -0.103 natural log
A57W: -0.131 natural log
E32A: 0.192 natural log
L52Y: -1.04 natural log
L59W: -0.326 natural log
S43E: 0.185 natural log
A29L: -0.195 natural log
K39I: -0.00385 natural log
T37R: 0.0693 natural log
A40W: -0.276 natural log
V35F: 0.0257 natural log
A46F: -0.21 natural log
N42E: -1.34 natural log
L52T: -1.14 natural log
K34F: -0.304 natural log
T37L: 0.133 natural log
L52P: -1.3 natural log
A49I: -0.102 natural log
E44D: -0.0652 natural log
A57K: 0.0463 natural log
S47N: 0.0898 natural log
K34Y: -0.0947 natural log

Series 3 — technique: universal PBM; molecule type: double-stranded DNA, one strand shown; matrix: in vitro; tested at: 600 nM; reading: higher = stronger binding; measurement: E-score
Target: Sal-like protein 4, full length isoform A (SALL4, Homo sapiens, UniProt Q9UJQ4, residues 1-1053)
Chain of UniProt Q9UJQ4 (whole entry, looked up): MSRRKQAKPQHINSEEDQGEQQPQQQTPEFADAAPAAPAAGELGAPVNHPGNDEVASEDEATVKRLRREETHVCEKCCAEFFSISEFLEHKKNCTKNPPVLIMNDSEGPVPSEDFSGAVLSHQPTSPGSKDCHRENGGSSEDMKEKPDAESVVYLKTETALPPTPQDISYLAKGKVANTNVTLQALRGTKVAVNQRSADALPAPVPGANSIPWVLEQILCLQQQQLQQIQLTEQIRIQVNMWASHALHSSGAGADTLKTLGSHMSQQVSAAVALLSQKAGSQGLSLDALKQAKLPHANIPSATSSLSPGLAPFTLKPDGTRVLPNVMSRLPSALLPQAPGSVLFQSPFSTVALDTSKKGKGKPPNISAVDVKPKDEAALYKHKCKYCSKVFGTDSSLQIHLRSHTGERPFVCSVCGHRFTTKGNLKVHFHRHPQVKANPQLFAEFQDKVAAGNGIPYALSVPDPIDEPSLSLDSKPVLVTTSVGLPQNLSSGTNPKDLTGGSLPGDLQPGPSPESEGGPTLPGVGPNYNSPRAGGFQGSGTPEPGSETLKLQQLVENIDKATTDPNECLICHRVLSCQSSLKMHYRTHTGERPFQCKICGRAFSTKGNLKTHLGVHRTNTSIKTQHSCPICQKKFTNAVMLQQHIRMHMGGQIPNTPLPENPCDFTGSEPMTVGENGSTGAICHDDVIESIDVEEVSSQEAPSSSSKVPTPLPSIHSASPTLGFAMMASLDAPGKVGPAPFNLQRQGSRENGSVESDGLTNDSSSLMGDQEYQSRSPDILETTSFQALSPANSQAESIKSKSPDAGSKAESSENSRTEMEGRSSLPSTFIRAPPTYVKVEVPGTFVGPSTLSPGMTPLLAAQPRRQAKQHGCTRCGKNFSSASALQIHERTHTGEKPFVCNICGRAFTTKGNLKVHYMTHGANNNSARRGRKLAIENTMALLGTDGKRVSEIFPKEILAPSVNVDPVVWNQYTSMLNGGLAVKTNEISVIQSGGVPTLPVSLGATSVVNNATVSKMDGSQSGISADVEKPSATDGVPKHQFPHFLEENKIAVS
Setting: 8-mer, flanks averaged, mean of replicates
GTTACTCA: 0.155
AATGTAGT: 0.144
GACTTGCA: 0.000645
ATCCAAAG: 0.0912
TAGGTACA: 0.0426
CACCAGCG: -0.226
GCCCCGCC: -0.222
ACCACGGT: -0.204
GGGGTCAC: -0.323
CTAGAGAG: -0.0845
AATCGTAG: 0.248
CTGATGCA: -0.0067
CGGATACG: -0.242
AACACTAG: 0.134
TCCCGTAA: 0.0809
GAAAATCA: 0.274

Series 4 — technique: DHFR PCA, dose-response; matrix: yeast; with: (+)-ABA, dose series; reading: lower = more sensitive; measurement: ABA EC50
Target: ABI1, truncated, D143A, DHFR fusion (Arabidopsis thaliana, UniProt P49597)
Setting: Hill fit, not affinity, not high confidence
Starting sequence: PYL1, truncated, DHFR fusion (Arabidopsis thaliana, UniProt Q8VZS8); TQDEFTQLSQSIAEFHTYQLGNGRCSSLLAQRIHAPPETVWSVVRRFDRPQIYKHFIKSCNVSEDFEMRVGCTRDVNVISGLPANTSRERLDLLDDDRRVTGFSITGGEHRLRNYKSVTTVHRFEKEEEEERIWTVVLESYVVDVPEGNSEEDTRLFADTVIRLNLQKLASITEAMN
V137H: 2.99 µM
F47A: 607 µM
T154K: 28.6 µM
K54D: 2000 µM
L91T: 35.1 µM
V100P: 2.39 µM
G102L: 2070 µM
T135M: 13 µM
V121K: 9.05 µM
S117L: 1090 µM
I105H: 164 µM
N114I: 272 µM
H16A: 556 µM
L166K: 9.03 µM
S140I: 263 µM
H16Q: 20.7 µM
P50L: 13.5 µM
A170I: 1470 µM
C60Y: 505 µM
N177H: 5.22 µM
S87F: 1.22 µM
V78E: 1.1 µM
T135R: 1.06 µM
K54L: 21 µM
S59K: 7.54 µM

Series 5 — target: UBE2L3 UBC core domain (UniProt P68036); technique: yeast two-hybrid; matrix: yeast; setting: mostly zero background; relative to: not given; reading: higher = stronger interaction; measurement: lacZ reporter activity
Chain of UniProt P68036 (whole entry, looked up): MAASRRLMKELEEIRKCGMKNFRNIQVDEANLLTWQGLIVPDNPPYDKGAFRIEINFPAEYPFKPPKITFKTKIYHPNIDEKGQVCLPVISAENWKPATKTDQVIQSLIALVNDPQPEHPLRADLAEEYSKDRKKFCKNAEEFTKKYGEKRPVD
B1: RFWD3 RING domain (UniProt Q6PCD5); chain ASMDEEEGDTCTICLEQWTNAGDHRLSALRCGHLFGYRCISTWLKGQVRKCPQCNKKARHSDIVV
B2: DZIP3 RING domain (UniProt Q86Y13); chain PDEEEEEEEPCVICHENLSPENLSVLPCAHKFHAQCIRPWLMQQGTCPTCRLHVLLPEEFP
B3: RNF19A RING domain (UniProt Q9NV58); chain ISKQIGDFIECPLCLLRHSKDRFPDIMTCHHRSCVDCLRQYLRIEISESRVNISCPECTERFNPHDIR
B4: RNF121 RING domain (UniProt Q9H920); chain MPTKHLSDSVCAVCGQQIFVDVSEEGIIENTYRLSCNHVFHEFCIRGWCIVGKKQTCPYCKEKVDLKRMFS
B5: TRIM62 RING domain (UniProt Q9BVG3); chain MACSLKDELLCSICLSIYQDPVSLGCEHYFCRRCITEHWVRQEAQGARDCPECRRTFAEPALAP
B6: RBCK1 RING domain (UniProt Q9BYM8); chain SLVLNTEPAECPVCYSVLAPGEAVVLRECLHTFCRECLQGTIRNSQEAEVSCPFIDNTYSCSGKLLEREIK
B1 (RFWD3 RING domain): 0
GSRLQEINDVCAICYHEFTTSARITPCNHYFHALCLRKWLYIQDTCPMCHQKVYIEDDIK (RNF139 RING domain (UniProt Q8WU17)): 0
B2 (DZIP3 RING domain): 0
KETIKKTTKPCPRCHVPVEKNGGCMHMKCPQPQCRLEWCWNCGCEWNRVCMG (PRKN RING domain (UniProt O60260)): 0
B3 (RNF19A RING domain): 0
B4 (RNF121 RING domain): 0
B5 (TRIM62 RING domain): 0
B6 (RBCK1 RING domain): 0
GSDDEEIPFKCFICRQSFQNPVVTKCRHYFCESCALQHFRTTPRCYVCDQQTNGVFNPA (RNF113A RING domain (UniProt O15541)): 0
KLRKLKEAMLCMVCCEEEINSTFCPCGHTVCCESCAAQLQSCPVCRSRVEHVQHVY (MYLIP RING domain (UniProt Q8WY64)): 0
AVPSGLEENLCKICMDSPIDCVLLECGHMVTCTKCGKRMNECPICRQYVIRAVHVF (RFFL RING domain (UniProt Q8WZ73)): 0

A few entries again (series 1):
T3A: -0.163
P11A: 0.287
S1A: 0.305
E13A: 0.389
F8A: 0.459
Q9A: 0.446
